Results of several laboratories.
Parts stem from different laboratories: compare values within a part only. Changes are numbered by the printed parent chain.

Series 1 — technique: protein binding microarray; molecule type: double-stranded DNA, one strand shown; matrix: in vitro; concentration: not given; reference: not given; reading: higher = stronger binding
Target: Histone acetyltransferase KAT6A, both winged helices, GST fusion (KAT6A, Homo sapiens, UniProt Q92794, residues 1-181)
Setting: 8-mer, flanks averaged, mean of 2 arrays, mostly near background
Construct (chain): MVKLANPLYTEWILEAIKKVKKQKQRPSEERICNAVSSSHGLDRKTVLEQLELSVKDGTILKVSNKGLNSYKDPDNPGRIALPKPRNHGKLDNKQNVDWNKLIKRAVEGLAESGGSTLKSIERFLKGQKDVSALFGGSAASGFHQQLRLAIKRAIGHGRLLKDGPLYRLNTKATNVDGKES
| Oligonucleotide | E-score |
| --- | --- |
| GCGCACCC | 0.243 |
| TATTCACA | 0.0382 |
| AGAGTTAC | -0.101 |
| ACCCCAAC | -0.16 |
| AAAGGCCT | -0.034 |
| TAAAGAAA | -0.137 |
| AAGATGTA | -0.0734 |
| ACTGGCCG | 0.153 |
| CACGTAAG | -0.0956 |
| ATCCGAGA | -0.0199 |
| CAGAACAC | -0.0746 |

Series 2 — target: CCNE1, cyclin fold, Cln2 fusion (human); technique: yeast growth competition, sequencing; matrix: yeast; setting: weak parent motif; reference: not given; reading: higher = stronger binding
Starting sequence: CDC6 docking peptide (human); TLKGRRLVFDNQL
| Variant | normalised enrichment score |
| --- | --- |
| TLKGKRLVFDNQL [R5K] | 0.266 |
| TLKGRHLVFDNQL [R6H] | -0.0601 |
| TLKGRRTVFDNQL [L7T] | -0.239 |
| TLKGRRYVFDNQL [L7Y] | 0.592 |
| TLKGRRLVKDNQL [F9K] | 1.04 |
| TLKGRRHVFDNQL [L7H] | 0.512 |
| TLKGRRLVFDNQK [L13K] | -0.239 |

Further values, each from its own experiment
| Molecule | target or system | test | test system | conditions | how to read | quantity | result |
| --- | --- | --- | --- | --- | --- | --- | --- |
| HBP1 (Homo sapiens, UniProt O60381) | ERMP1 (Homo sapiens, UniProt Q7Z2K6) | cross-linking MS | cell fractions | added: DHSO |  | cross-linked residues | E478 to D108 |
| PhoQ, residues 284 288 289 292 302 303 AANNSF | PhoP, residues 12 14 15 18 19 VHTVL (Escherichia coli, UniProt P23836) | Sort-seq, refers to: YFP reporter | E. coli | PhoQ-PhoP variant library, added: 10 µM Mg2+ | reference: high Mg2+ state, higher = stronger signaling | fold induction | 8.47 |
| PTBP1 (Homo sapiens, UniProt P26599) | HNRNPK (Homo sapiens, UniProt P61978) | cross-linking MS | cell fractions | added: DSSO |  | cross-linked residues | K436 to K405 |
| TPR (Homo sapiens, UniProt P12270) | NUP153 (Homo sapiens, UniProt P49790) | cross-linking MS | cell fractions | added: DSSO |  | cross-linked residues | K494 to K353 |

Excerpt of the above (series 1):
| Oligonucleotide | E-score |
| --- | --- |
| AGAGTTAC | -0.101 |
| ATCCGAGA | -0.0199 |
